Measured values of several laboratories.
Lines come from different studies, so protocols differ. Values joined by “and” are separate records of one study, mostly repeats; a detail may differ. ± marks the error that the study gave.

`C=CC[C@@H]1/C=C(\C)C[C@H](C)C[C@H](OC)[C@H]2O[C@@](O)(C(=O)C(=O)N3CCCC[C@H]3C(=O)O[C@H](/C(C)=C/[C@@H]3CC[C@@H](O)[C@H](OC)C3)[C@H](C)[C@@H](O)CC1=O)[C@H](C)C[C@@H]2OC` has an activity score of 4.1 (human iPSC-derived cardiomyocytes; MyBP-C/MYH ratio, plate-normalised SD score; concentration not given, primary screen; direction not given).
`NCCOc1cc(NC(=O)c2cccc(C(=O)Nc3cc(OCCN)c4ccccc4n3)n2)nc2ccccc12` gave a ΔTm of 9.1 ± 0.2 K (c-myc G-quadruplex DNA; FRET melting; 1 µM, pH 7.4, added: 60 mM potassium).
Under “log2 fold change”, `c1coc(-c2n[nH]cc2-c2ccnc3ccccc23)c1` is recorded as -0.09 (KIN2 (Candida albicans); kinase binding, MIB/MS competition; Candida albicans lysate; 1 µM; reference: DMSO).
With `Cc1cc(F)cc2c(CCC(=O)N[C@@H]3C(=O)NC[C@H]3O)c(-c3ccc(F)cc3)[nH]c12` the inhibition was 12.5% (adrenergic α1A receptor; binding; 10 µM).
With `CN(C)CCCOc1cc(NC(=O)c2cccc(C(=O)Nc3cc(OCCCN(C)C)c4ccccc4n3)n2)nc2ccccc12` the ΔTm was 16.6 ± 0.4 K (c-myc G-quadruplex DNA; FRET melting; 1 µM, pH 7.4, added: 60 mM potassium).
`CC(Nc1nc(N2CCCC2)nc2ccccc12)c1ccccc1` (stereo not drawn): “cells with nuclear reporter” 88.3% and 98.5% (importin α/β1; cMyc nuclear import, high content imaging; HeLa Kyoto reporter; 0.1 µM, 2 h).
`NCCOc1cc(C(=O)Nc2cc(OCCN3CCCC3)c3ccccc3n2)nc(C(=O)Nc2cc(OCCN3CCCC3)c3ccccc3n2)c1` has a ΔTm of 17 ± 0.8 K (c-myc G-quadruplex DNA; FRET melting; 1 µM, pH 7.4, added: 60 mM potassium).
`[Cl-].[Cl-].[Pt+2].[Ru+2].c1ccc(-c2nc3cc4ccccc4cc3nc2-c2ccccn2)nc1.c1cnc2c(c1)ccc1cccnc12.c1cnc2c(c1)ccc1cccnc12` has a supercoiled DNA of 86% (pcDNA supercoiled plasmid; agarose gel electrophoresis; 50 µM, photoinduced cleavage, added: 0.1 µM pcDNA).
The ΔTm of `COc1cc(C(=O)Nc2cc(OCCN3CCCC3)c3ccccc3n2)nc(C(=O)Nc2cc(OCCN3CCCC3)c3ccccc3n2)c1` is reported as 4.9 ± 0.8 K (c-myc G-quadruplex DNA; FRET melting; 1 µM, pH 7.4, added: 60 mM potassium).
The IC50 of `CCN(CC)c1ccc(/C=N/c2ccc(Cl)cc2)c(O)c1` is reported as 191 µM (yeast alpha-glucosidase; enzyme activity; added: pNPG).
`CCS(=O)(=O)c1nc(C2CC2)cc(C(F)(F)F)n1` — result for “cells with nuclear SREBP1”: 90.3% and 89.3% and 87% and 91.2% (importin beta-1; SREBP1 nuclear import, high content imaging; HeLa Kyoto; 5.01 µM, 3 h, added: glucose and MG132).
With `[Cl-].[Cl-].[Pt+2].[Ru+2].c1ccc(-c2nccnc2-c2ccccn2)nc1.c1cnc2c(c1)ccc1cccnc12.c1cnc2c(c1)ccc1cccnc12` the supercoiled DNA was 77.4% (pcDNA supercoiled plasmid; agarose gel electrophoresis; 20 µM, photoinduced cleavage, added: 0.1 µM pcDNA).
`Oc1cccc(Nc2nc(-c3ccc(F)cc3F)cs2)c1` has an inhibition of 4.2% (SKCa channel; 10 µM).
`CN(C)CCOc1cc(NC(=O)c2cc(Cl)cc(C(=O)Nc3cc(OCCN(C)C)c4ccccc4n3)n2)nc2ccccc12` gave a ΔTm of 12.1 ± 0.5 K (c-myc G-quadruplex DNA; FRET melting; 1 µM, pH 7.4, added: 60 mM potassium).
`Cc1ncsc1-c1ccc([C@H](C)NC(=O)[C@@H]2C[C@@H](O)CN2C(=O)[C@@H](NC(=O)CCCCCCCCCCNC[C@@H](C(=O)N2CCN(c3ncnc4c3[C@H](C)C[C@H]4O)CC2)c2ccc(Cl)cc2)C(C)(C)C)cc1`: “time to peak response” 24 h (Akt; inhibitor; mouse BT-474 xenograft; intraperitoneal, 40 mg/kg).
`[Cl-].[Cl-].[Pt+2].[Ru+2].c1ccc(-c2nc3ccccc3nc2-c2ccccn2)nc1.c1cnc2c(c1)ccc1cccnc12.c1cnc2c(c1)ccc1cccnc12` — result for “nicked circular DNA”: 19.5% (pcDNA supercoiled plasmid; agarose gel electrophoresis; 100 µM, photoinduced cleavage, added: 0.1 µM pcDNA).
With `CCCCC(CC)CN1CN(CC(CC)CCCC)CC(C)(N)C1` (stereo not drawn) the activity score was 8.6 (human iPSC-derived cardiomyocytes; MyBP-C/MYH ratio, plate-normalised SD score; concentration not given, primary screen; direction not given).
Under “log2 fold change”, `Oc1ccccc1-c1n[nH]cc1-c1ccnc2ccccc12` is recorded as -0.46 (MPS1 (Candida albicans); kinase binding, MIB/MS competition; Candida albicans lysate; 1 µM; reference: DMSO).
`CC[S+]([O-])c1nc(-c2ccccc2)cc(C(F)(F)F)n1` (stereo not drawn): “cells with nuclear SREBP1” 56.4% and 80.3% and 76.1% (importin beta-1; SREBP1 nuclear import, high content imaging; HeLa Kyoto; 15.82 µM, 3 h, added: glucose and MG132).
With `Cc1nc(NC(=O)c2cc(S(=O)(=O)N(C)C)ccc2N(C)C2CCCC2)sc1C` the IC50 was 0.38 µM (oligosaccharyltransferase; N-glycosylation, inhibitor, luciferase reporter).
With `Ic1ccc2nccc(NCCc3ccccc3)c2c1` the IC50 was over 5 µM (CDK8/CDK19; NF-κB reporter gene; 293-NFκB-Luc; 3 h, added: TNF-α 10 ng/mL).
Under “log2 fold change”, `Cn1cc(-c2ccc(-c3cncc(Cl)c3N3CCC4(CCNC4=O)CC3)cc2)cn1` is recorded as -1.45 (COLO 205; gene expression, microarray, item: PCK2 mRNA; concentration not given, 2 h; reference: untreated cells).
`Clc1ccc2nccc(NCCc3ccccc3)c2c1` has an IC50 of over 5 µM (CDK8/CDK19; NF-κB reporter gene; 293-NFκB-Luc; 3 h, added: TNF-α 10 ng/mL).
`C=CC(=O)N1CCN(c2nc(=O)n(-c3c(C)ccnc3C(C)C)c3nc(-c4c(O)cccc4F)c(F)cc23)[C@@H](C)C1`: inhibition “inactive” (HRAS wild type (human); SOS-mediated nucleotide exchange, inhibitor; concentration not given).

Some of these lines once more:
`Oc1cccc(Nc2nc(-c3ccc(F)cc3F)cs2)c1` has an inhibition of 4.2% (SKCa channel; 10 µM).
